Results gathered from unrelated publications.
Lines come from different studies, so protocols differ. ± gives the spread as reported.

For `CCN1/C(=C/C(C)=O)Sc2ccc(F)cc21`, “PR interval change” read 104 ± 2.5% (cynomolgus monkey; oral, 100 mg/kg, 6 h post-dose; relative to: pre-dose).
Under “urinary potassium excretion change”, `Cc1ccc([C@@H]2O[C@H](CO)[C@@H](O)[C@H](O)[C@H]2O)cc1Cc1ccc(-c2ccc(F)cc2)s1` is recorded as -3.23 mEq (Japanese type 2 diabetes patients; 100 mg, day 17, 24 h urine collection; relative to: baseline).
The SHBG level of `N#Cc1ccc2c(c1)[C@H]1CCCN(C(=O)c3ccc4[nH]cnc4c3)[C@H]1C2` is reported as 38 nmol/L (human males; 10 mg, day 7).
Under “recovery of dose”, `COc1ccc(F)cc1C(=O)NCc1ccc(-c2nn([C@@H](C)C(F)(F)F)c(N)c2C(N)=O)cc1` is recorded as 28.2% (human male, urine and feces; oral, 200 mg, time not given, with: [14C] label).
For `COc1cc2c(cc1OC)C(=O)C(CC1CCN(Cc3ccccc3)CC1)C2` (stereo not shown), “LSEQ awake following sleep” read 3.29 (human subjects; unit not given; relative to: placebo).
The CL/F of `CCn1cc(C(=O)N2CCOCC2)c(=O)c2cc(NC3Cc4ccccc4C3)cnc21` is reported as 18.6 L/h (human, plasma; oral, 900 mg BID, day 7, fed, tablet, overall).
`CCOc1c([C@H](C)n2nc(C)c3c(N)ncnc32)cc(Cl)c(F)c1[C@@H]1CNC(=O)C1`: “stability relative error” 11.4% (rat plasma; 1600 ng/mL, 3 h, room temperature; relative to: nominal concentration).
For `N#Cc1ccc2c(c1)[C@H]1CCCN(C(=O)c3ccc4[nH]cnc4c3)[C@H]1C2`, “half-life steady state” read 107 h (human, plasma; oral, 240 mg once daily, steady state).
With `O=C(Nc1c2c(cc3c1CCC3)CCC2)NS(=O)(=O)/C=C/c1nccs1` the metabolized fraction was 2.62% (dog liver microsomes; 1 µM, 30 min, with: NADPH).
`CNC(=O)c1ccc(-c2cnc3ncc(Cc4ccc5ncccc5c4)n3n2)cc1F` has a Dizziness patients of 0% (Japanese patients; oral, 400 mg twice daily, grade 3/4).
`Cc1cc(NC2CCN(C(=O)OC3CCN(C(=O)/C=C/CN(C)C)C3)CC2)n2ncc(C(C)C)c2n1` (stereo not shown) — result for “patients with TEAE”: 0% (CTCAE v4.0, measured: Flatulence; patients with advanced solid tumours; oral, dose not given, TIW, grade 3 or higher).
The metabolic stability of `N=S(c1ccc(C(F)(F)F)cc1)c1cccnc1` (stereo not shown) is reported as less than 23% (human liver microsomes; relative to: hepatic blood flow).
`Cc1c(Cl)c(C)[n+]([O-])c(Cl)c1-c1noc(-c2cc(O)c(O)c([N+](=O)[O-])c2)n1` — result for “adverse drug reaction incidence”: 0% (measured: Hyperhidrosis; healthy Chinese subjects; oral, 50 mg, 20 days).
Under “lipase increase incidence”, `O=C(Nc1ccc(OC(F)(F)Cl)cc1)c1cnc(N2CC[C@@H](O)C2)c(-c2ccn[nH]2)c1` is recorded as 1.9% (human patients; oral, dose not given; relative to: records).
With `Cc1cccc(CNC(=O)c2cn(CCNC(=O)c3ccccc3Sc3c([N+](=O)[O-])ncn3C)c3cc4c(cc3c2=O)OC(F)(F)O4)n1` the bioavailability was 48% (Sprague-Dawley rat, male, whole blood; intramuscular, 3 mg/kg of parent drug).
`Nc1ncnc2c1ncn2[C@H]1C[C@@H]2OP(=O)(O)OC[C@H]3O[C@@H](n4cnc5c(N)ncnc54)C[C@@H]3OP(=O)(O)OC[C@H]2O1` has a total cholesterol of 4.27 ± 1.13 mmol/L (non-tumor-bearing mice, serum; intravenous, 1 mg/kg, toxicity study).
The CC50 of `CN(c1ccc(F)cc1)c1c(-c2ccc(F)cn2)nc2ccccn12` is reported as greater than 63.1 µM (peritoneal macrophages, Swiss mice; 5 days, 5% fetal calf serum).
`Cl.[2H]C([2H])([2H])CC(=O)c1cnc(NC(=O)C2CC2)cc1Nc1cccc(-c2ncn(C([2H])([2H])[2H])n2)c1OC`: “elimination rate constant” 2.28e-05 s⁻¹ (geometric mean; human; oral, 40 mg twice daily, day 7, fed, liquid, multiple dose).
`COc1ccnc(C(=O)NCC(=O)O)c1O` has a DT50 of 5.62 days (aerobic dark soil incubation; silt loam soil; 20 °C, persistence endpoint).

Excerpt of the above:
`CNC(=O)c1ccc(-c2cnc3ncc(Cc4ccc5ncccc5c4)n3n2)cc1F` has a Dizziness patients of 0% (Japanese patients; oral, 400 mg twice daily, grade 3/4).
